Experimental data collected from several papers.
Each line is one published result; not all experiments were run side by side.
Technique: shake flask

Cc1ccc(S(=O)(=O)OCCOC(=O)c2cc(C#N)c(N3CCN(C(=O)Cc4ccccc4)CC3)nc2C)cc1
logD (PBS; pH 7.4): 1.11

CCNC(=O)C1OC(n2cnc3c(NC(CC)CC)nc(NCCNC(=O)Nc4ccncc4)nc32)C(O)C1O (stereo not drawn)
logD (aqueous buffer; pH 7.4): 2.25

NC(=O)C(c1ccccc1)(c1ccc(F)cc1)c1ccc(OCC[18F])cc1 (stereo not drawn)
logD (PBS; pH 7.4): 1.84

O=C(Nc1ccc2c(c1)CN(c1ccc(Br)cc1)C2=O)N1CCN(c2ccc(F)cc2)CC1
logD (aqueous buffer; pH 7.4): < 5

O=C1CCCCC(=O)Nc2ccc3oc(cc3c2)CNCc2cccc(c2)CNCc2cc3cc(ccc3o2)N1
logD (aqueous buffer; pH 7.4): 3.3

CCNC(=O)C1OC(n2cnc3c(NCC(c4ccccc4)c4ccccc4)nc(NCCc4ccc(CCN)cc4)nc32)C(O)C1O (stereo not drawn)
logD (aqueous buffer; pH 7.4): 1.9

Cc1ccccc1-c1cc(N2CCN(Cc3ccccc3)CC2)ccc1N(C)C(=O)C(C)(C)c1cc(C(F)(F)F)cc(C(F)(F)F)c1
logD (aqueous buffer; pH 7): > 5

CC[C@@H](C)N([11CH3])C(=O)c1nc(-c2ccc(Cl)cc2)c2ccccc2n1
logD (aqueous buffer; pH 7.4): ~3.5

C[n+]1cc(C(=O)NCCc2c[nH]c3ccc(NC(=O)c4cc5ccccc5[n+](C)c4)cc23)cc2ccccc21
logD (aqueous buffer; pH 7.4): -0.2

Cc1ccc(S(=O)(=O)OCCOC(=O)c2cc(C#N)c(N3CCC(C(=O)NS(=O)(=O)c4ccc(Cl)s4)CC3)nc2C)cc1
logD (PBS; pH 7.4): 0.99

CCn1cc(C(=O)NCCNCCO)c(=O)c2cc(OCc3ccc(F)cc3)c(Cl)cc21
logD (PBS; 2 h, pH 7.4): < 3

CCNC(=O)C1OC(n2cnc3c(NCC(C)C)nc(NCCNC(=O)Nc4cc[n+](C)cc4)nc32)C(O)C1O (stereo not drawn)
logD (aqueous buffer; pH 7.4): < -1.1

Cc1ccccc1-c1cc(N2CCOCC2)ccc1N(C)C(=O)C(C)(C)c1cc(C(F)(F)F)cc(C(F)(F)F)c1
logD (aqueous buffer; pH 7): 3.49

COc1cc2c(=O)c(C(=O)NCCNCCO)cn(Cc3ccccc3)c2cc1OCc1ccc(C(C)(C)C)cc1
logD (PBS; 2 h, pH 7.4): < 3

COc1cc(-c2cncc(-c3ccc(N4CCNCC4)cc3)c2C)cc(OC)c1F
logD (aqueous buffer; pH 7.4): 2.45

CCNC(=O)C1OC(n2cnc3c(NC(CC)CC)nc(NCCNC(=O)Nc4cc[n+](C)cc4)nc32)C(O)C1O (stereo not drawn)
logD (aqueous buffer; pH 7.4): -0.7

O=C(NCCNCCO)c1cn(Cc2ccc(F)cc2)c2cc(Cl)c(OCc3ccc(C(F)(F)F)cc3)cc2c1=O
logD (PBS; 2 h, pH 7.4): < 3

OCC1OC(n2cnc3c(NCC(c4ccccc4)c4ccccc4)ncnc32)C(O)C1O (stereo not drawn)
logD (aqueous buffer; pH 7.4): 2.6

Cc1ccc(N2Cc3cc(NC(=O)N4CCN(c5cccc(C(F)(F)F)c5)CC4)ccc3C2=O)cc1
logD (aqueous buffer; pH 7.4): < 5

CCNC(=O)C1OC(n2cnc3c(N)nc(NCCNC(=O)Nc4cc[n+](C)cc4)nc32)C(O)C1O (stereo not drawn)
logD (aqueous buffer; pH 7.4): < -1

Cc1ccccc1-c1cc(N2CCN(C(=O)CCC(=O)O)CC2)ccc1N(C)C(=O)C(C)(C)c1cc(C(F)(F)F)cc(C(F)(F)F)c1
logD (aqueous buffer; pH 7): 3.49

CC(C)[C@H](CO)Nc1nc(Nc2ccc(C(=O)NCCNS(=O)(=O)c3cccc4c(N(C)C)cccc34)c(Cl)c2)c2ncn(C(C)C)c2n1
logD (PBS; pH 7.4): 2.03

Cc1nc(-c2ccc(NC(=O)c3cccs3)cc2Cl)no1
logD (PBS; 4 h, pH 7.4): 3.3

COc1cc(/C=C/C(=O)/C=C(O)/C=C/c2ccc(OCC(=O)N3CCOCCOCCOCC3)c(OC)c2)ccc1OCC(=O)N1CCOCCOCCOCC1
logD (aqueous buffer; 12 h, pH 7.4): 3.2

C[n+]1cc2cc3cc(ccc31)NC(=O)CCCCC(=O)Nc1ccc3c(c1)cc(c[n+]3C)C(=O)NCc1cccc(c1)CNC2=O
logD (aqueous buffer; pH 7.4): < -1

Cc1ccc2c(=O)n(-c3ccc([18F])cc3)c(CCN3C(=O)c4cccc(OC(C)C)c4C3=O)nc2c1
logD (PBS; pH 7.4): 3.5

CN1C(=O)C2(Nc3ccccc3C(=O)N2Cc2ccccc2)c2cc(Br)ccc21 (stereo not drawn)
logD (aqueous buffer; pH 7.4): 3.7

C[n+]1cc(NC(=O)c2ccc3ccc4ccc(C(=O)Nc5cc6ccccc6[n+](C)c5)nc4c3n2)cc2ccccc21
logD (aqueous buffer; pH 7.4): -0.2

COc1cc(-c2cncc(-c3ccc(N4CCN(C)CC4)cc3)c2C)cc(OC)c1OC
logD (aqueous buffer; pH 7.4): 3.37

O=[11C](OC(C(F)(F)F)C(F)(F)F)N1CCC(CNS(=O)(=O)c2ccc(Cl)cc2)CC1
logD (PBS; pH 7.4): 3.69

Some of these lines once more:
Cc1ccc(S(=O)(=O)OCCOC(=O)c2cc(C#N)c(N3CCC(C(=O)NS(=O)(=O)c4ccc(Cl)s4)CC3)nc2C)cc1
logD (PBS; pH 7.4): 0.99

OCC1OC(n2cnc3c(NCC(c4ccccc4)c4ccccc4)ncnc32)C(O)C1O (stereo not drawn)
logD (aqueous buffer; pH 7.4): 2.6

COc1cc(-c2cncc(-c3ccc(N4CCN(C)CC4)cc3)c2C)cc(OC)c1OC
logD (aqueous buffer; pH 7.4): 3.37

C[n+]1cc(C(=O)NCCc2c[nH]c3ccc(NC(=O)c4cc5ccccc5[n+](C)c4)cc23)cc2ccccc21
logD (aqueous buffer; pH 7.4): -0.2
